Published values pooled from the literature.
Parts stem from different laboratories: compare values within a part only. Substitutions count along the parent as printed.

Block 1
Target: UBE2J2 UBC core domain (UniProt Q8N2K1)
Technique: yeast two-hybrid
Matrix: yeast
Notes: mostly zero background
Baseline: not given
Direction: higher = stronger interaction
Endpoint: lacZ reporter activity
B1: RNF111 RING domain (UniProt Q6ZNA4); chain EGTEEDTEEKCTICLSILEEGEDVRRLPCMHLFHQVCVDQWLITNKKCPICRVDIEAQLPSE
B2: RC3H1 RING domain (UniProt Q5TC82); chain QAPQWTDFLSCPICTQTFDETIRKPISLGCGHTVCKMCLNKLHRKACPFDQTTINTDIELL
B3: TRIM4 RING domain (UniProt Q9C037); chain EAEDIQEELTCPICLDYFQDPVSIECGHNFCRGCLHRNWAPGGGPFPCPECRHPSAPAALRP
B4: TRIM43 RING domain (UniProt Q96BQ3); chain FSHAFQKELTCVICLNYLVDPVTICCGHSFCRPCLCLSWEEAQSPANCPACREPSPKMDFKT
B5: RNF208 RING domain (UniProt Q9H0X6); chain SSAAAGEPLECPTCGHSYNVTQRRPRVLSCLHSVCEQCLQILYESCPKYKFISCPTCRRETVLFTDYG
B6: TRIM5 RING domain (UniProt Q9C035); chain LREVKLSPEGQKVDHCARHGEKLLLFCQEDGKVICWLCERSQEHRGHHTFLTEEVAREYQVKL
B7: RNF38 RING domain (UniProt Q9H0F5); chain PNNHQSEQTLCVVCMCDFESRQLLRVLPCNHEFHAKCVDKWLKANRTCPICRADASEVHRDS
Target sequence (chain): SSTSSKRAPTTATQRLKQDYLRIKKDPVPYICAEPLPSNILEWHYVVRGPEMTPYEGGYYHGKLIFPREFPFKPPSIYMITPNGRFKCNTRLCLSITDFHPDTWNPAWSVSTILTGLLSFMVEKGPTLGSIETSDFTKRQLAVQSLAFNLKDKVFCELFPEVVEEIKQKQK
Sequence = B1 (RNF111 RING domain); result = 0
Sequence = B2 (RC3H1 RING domain); result = 0
Sequence = B3 (TRIM4 RING domain); result = 0
Sequence = B4 (TRIM43 RING domain); result = 0
Sequence = B5 (RNF208 RING domain); result = 0
Sequence = MPIRALCTICSDFFDHSRDVAAIHCGHTFHLQCLIQWFETAPSRTCPQCRIQVGKRTIIN (TRAIP RING domain (UniProt Q9BWF2)); result = 2720
Sequence = B6 (TRIM5 RING domain); result = 0
Sequence = VEPSEENSKDCVVCQNGTVNWVLLPCRHTCLCDGCVKYFQQCPMCRQFVQESFALC (CGRRF1 RING domain (UniProt Q99675)); result = 0
Sequence = DHGAVGQEMCCPICCSEYVKGEVATELPCHHYFHKPCVSIWLQKSGTCPVCRCMFPPPL (PJA1 RING domain (UniProt Q8NG27)); result = 9720
Sequence = ASLPTSEEDLCPICYAHPISAVFQPCGHKSCKACINQHLMNNKDCFFCKTTIVSVEDWE (RNF123 RING domain (UniProt Q5XPI4)); result = 0
Sequence = B7 (RNF38 RING domain); result = 0
Sequence = QVDKAVFHMQSVKCLKCQEQKRAVLPCQHAALCELCAEGSECPICQPGRAHTLQS (UNK RING domain (UniProt Q9C0B0)); result = 0

Block 2
Target: ABI1, truncated, D143A, DHFR fusion (Arabidopsis thaliana)
Technique: DHFR PCA, deep sequencing
Matrix: yeast
Notes: methotrexate growth selection, single substitutions
Together with: (+)-ABA 0 µM
Baseline: wild-type fitted maximum
Direction: higher = stronger binding
Endpoint: relative binding score
Starting sequence: PYL1, truncated, DHFR fusion (Arabidopsis thaliana); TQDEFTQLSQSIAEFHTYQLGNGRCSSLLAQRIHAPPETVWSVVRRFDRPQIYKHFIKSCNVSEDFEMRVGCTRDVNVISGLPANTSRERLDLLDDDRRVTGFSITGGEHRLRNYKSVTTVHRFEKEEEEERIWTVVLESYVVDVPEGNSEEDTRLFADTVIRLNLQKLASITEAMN; partner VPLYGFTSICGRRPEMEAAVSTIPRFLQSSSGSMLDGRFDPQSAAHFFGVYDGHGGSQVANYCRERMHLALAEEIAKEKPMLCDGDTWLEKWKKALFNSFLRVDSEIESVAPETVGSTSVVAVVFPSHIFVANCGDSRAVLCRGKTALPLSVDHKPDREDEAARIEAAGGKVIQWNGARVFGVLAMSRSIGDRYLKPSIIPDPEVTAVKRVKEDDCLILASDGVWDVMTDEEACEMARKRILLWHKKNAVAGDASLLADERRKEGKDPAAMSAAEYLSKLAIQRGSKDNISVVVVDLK
Substitution = T135P; result = -6.44%
Substitution = V118A; result = 2.03%
Substitution = E109I; result = 3.08%
Substitution = G102Q; result = 1.48%
Substitution = R74M; result = 1.17%
Substitution = N165L; result = 8.79%
Substitution = N61I; result = 39.6%
Substitution = R99H; result = 26.7%
Substitution = R155N; result = -5.65%
Substitution = T1V; result = 32.6%
Substitution = E152M; result = 2.85%
Substitution = S87N; result = -0.539%

Block 3
Target: Histone acetyltransferase KAT6A, winged helix 1, GST fusion (KAT6A, Homo sapiens, UniProt Q92794, residues 1-85)
Technique: protein binding microarray
Form: double-stranded DNA, one strand shown
Matrix: in vitro
Tested at: not given
Notes: 8-mer, flanks averaged, mean of 2 arrays, mostly near background
Baseline: not given
Direction: higher = stronger binding
Endpoint: E-score
Residues (chain): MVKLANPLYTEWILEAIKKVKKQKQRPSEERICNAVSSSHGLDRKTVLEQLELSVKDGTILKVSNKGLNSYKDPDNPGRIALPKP
Oligonucleotide = CCTCGTCC; result = -0.189
Oligonucleotide = ACATTTCC; result = -0.0305
Oligonucleotide = CGTGTTCA; result = 0.0247
Oligonucleotide = ACACTCCT; result = -0.0805
Oligonucleotide = CGCAATTC; result = 0.263
Oligonucleotide = ATGTAATC; result = -0.117
Oligonucleotide = GAGAAGGA; result = -0.139
Oligonucleotide = TAGTGGCA; result = -0.119
Oligonucleotide = CTGCTGCA; result = -0.109
Oligonucleotide = CCAGACGG; result = 0.158
Oligonucleotide = GGCTACAA; result = -0.0469
Oligonucleotide = CCGTTCCG; result = 0.369
Oligonucleotide = GGTATTCA; result = -0.0856
Oligonucleotide = CCAAATAA; result = -0.191
Oligonucleotide = CAGTCGGG; result = 0.0868
Oligonucleotide = ATGCCTCA; result = 0.0423
Oligonucleotide = AATTATGT; result = 0.0355
Oligonucleotide = TAAACAAA; result = -0.125
Oligonucleotide = AAATTGTT; result = -0.202
Oligonucleotide = ATCTCGCA; result = -0.191
Oligonucleotide = AATTGGAT; result = -0.172
Oligonucleotide = GTTTCATA; result = 0.0196
Oligonucleotide = ATTACCCA; result = -0.215
Oligonucleotide = GACTTAGC; result = -0.00722
Oligonucleotide = CCCCATCA; result = -0.262

Block 4
Target: CCNB3, cyclin fold, Cln2 fusion (human)
Technique: yeast growth competition, sequencing
Matrix: yeast
Notes: weak parent motif
Baseline: not given
Direction: higher = stronger binding
Endpoint: normalised enrichment score
Starting sequence: CDKN1B docking peptide (human); PSACRNLFGPVDH
Substitution = PHACRNLFGPVDH [S2H]; result = 0.0927
Substitution = PSACRNLFGPEDH [V11E]; result = 0.289
Substitution = PWACRNLFGPVDH [S2W]; result = 0.0633
Substitution = PPACRNLFGPVDH [S2P]; result = 0.407
Substitution = PSACRNLFGPMDH [V11M]; result = 0.248
Substitution = PSACRNLFGPVSH [D12S]; result = 0.000446
Substitution = PSACRNLPGPVDH [F8P]; result = 0.216
Substitution = PSACANAFGPVDH [R5A L7A]; result = -0.1
Substitution = PSACRNAFGPVDH [L7A]; result = 0.0329
Substitution = PSACRNKFGPVDH [L7K]; result = 0.12
Substitution = PSRCRNLFGPVDH [A3R]; result = 0.307
Substitution = PSACINLFGPVDH [R5I]; result = 0.149
Substitution = PSQCRNLFGPVDH [A3Q]; result = 0.432
Substitution = PSACQNLFGPVDH [R5Q]; result = 0.237
Substitution = PSACRILFGPVDH [N6I]; result = 0.759
Substitution = PSACRNLFGPQDH [V11Q]; result = 0.338
Substitution = PSCCRNLFGPVDH [A3C]; result = 0.543
Substitution = PSACENLFGPVDH [R5E]; result = 0.406
Substitution = PSACRNLFGPVAH [D12A]; result = 0.743
Substitution = PSACRNCFGPVDH [L7C]; result = -0.241
Substitution = PSACRNLFGPVNH [D12N]; result = 0.538
Substitution = PSACRNLNGPVDH [F8N]; result = 0.167
Substitution = PSACRNLTGPVDH [F8T]; result = -0.0139
Substitution = PSACRNLHGPVDH [F8H]; result = 0.322
Substitution = PSACRRLFGPVDH [N6R]; result = 0.175
